# Results gathered from unrelated publications.
# Parts stem from different laboratories: compare values within a part only. Changes are numbered by the printed parent chain.

# Block 1
# Target: RNA binding protein fox-1 homolog 2, RRM domain, GST-SBP tag (RBFOX2, Homo sapiens, UniProt O43251-10, residues 100-194)
# Method: RNA Bind-n-Seq
# Form: RNA
# Medium: in vitro
# Tested at: 365 nM
# Setting: natural RNA segment, single round, ends assumed
# Relative to: no-protein control
# Reading: higher = stronger binding
# All sequences stand within: GGGAGUUCUACAGUCCGACGAUC … UGGAAUUCUCGGGUGCCAA
# Residues (chain): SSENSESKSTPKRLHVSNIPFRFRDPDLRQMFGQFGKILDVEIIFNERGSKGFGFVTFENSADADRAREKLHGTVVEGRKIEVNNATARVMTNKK
Sequence,RBNS enrichment (R)
UAAUUGAACAUUUUCAAUUAUAUGCAGACUGACUGAUUCUAAGAUAAAUUCUAAGGAGGUUUCUAAUUUUGUAAUUGUUAAAAAUAGAGUUAAUUUUGACUUUGUUAGAU,0.635
UUCCAAGGCUGGAAAGACACAGUCAUGGAUGUACUGUCUGAGCAUAGAGAACCCGGGCUUGAGUGAGAAGAGCUUGCACAGCCAGUGAGACACAUUGCCUUCUGCAGCUG,0.233
GUAUCUCUUACAUCAGUAGCAUUUUUCUAAAACCUUAGUCAUCAGAUAUGCUUACUAAAUCUUCAGCAUAGAAGGAAGUGUGUUUGCCUAAAACAAUCUAAAACAAUUCC,0.332
CAUCACGUGGAAAAACUAGAUCCUGUUGGUUAUAGCAUUUGUGAGUUCUCCACGUCUGUCUCUCUCGCUCAUGUAAUAUACUCUGACCCUGAGUGGAAAGGGGUUUUUGU,0.838
AUCUGGACUGGUAAAAUCUUGAUGAGGCUCAUAAAAUGAGUUUGGGAAUUGUGUAUAGCUGAUUUUUUGUGGGAAACUGUUUACUUCAUUCAAAGGUUCUUGAGACUCUU,0.747
GAAAAUUAAAACUAUGGAAAAUUUGUCUAGCAUAUCAGAAGUUGUAAAUGCUAUAUCUGGUAUCCAGAGGCUGGCUGUAAAAAGUUCCUUGGGGUCACUCUAUCUCACAU,0.639
CAGCUUCGCACAGGCUCCUGGAGGGCUGCCUGGGGGAGGCAGACAUGGGAGUGCCAAGGUGGCCAGAUGGUUCCAGGACUACAAUGUCUUUAUUUUUAACUGUUUGCCAC,1.5
GACUGACGUAAGGACCCCCGACCGACCUCAUCUUGUUAAGUUAACGGAGACCCUUCUUGUUGAAGGGGCCUGCUGCUAGUAACCUUUGCAAUGUUCUGCUUUUAAUAUGU,1.03
AUAAAUCAGAACUAGCAGAAGUAGCAGAGUGAUGGGAGCAAAAUAGGCACUGAAUUCGUCAACUCUUUUUUGUGAGCCUACUUGUGAAUAUUACCUCAGAUACCUGUUGU,0.258
AGGGAGUGAAUAACAGUGAGAAGAGGAAUGGCAGGUGCCUGUUUCAUAGUCAGUGAGUGUGAAAGUUAGGCAUAAUAAUGGCAUCUCCCCACUUUAGGGUUCUCAAAUAC,0.267
UUCCUGUAGCUGUCAAGUGGUCUCCAGCAGUUCACUCCAUCAUGUUGCACAGUACUAAGAGACUCAUUCAGAAAUCAAGACUUUAGAUGUAAUAUGUUGAUUAAAAUGUA,0.322
AGCCCUGCUAAGUGACUGACCACUGUUUAGAAUGUCCAGAAUCUGAUGUCCAUCUGUCCCUGUGUCUUCUGUCCUCUUUCAGCUAGUUUAGGCUUAUGCCUAGAGUCACC,0.609

# Block 2
# Target: Histone acetyltransferase KAT6A, both winged helices, GST fusion (KAT6A, Homo sapiens, UniProt Q92794, residues 1-181)
# Method: protein binding microarray
# Form: double-stranded DNA, one strand shown
# Medium: in vitro
# Tested at: not given
# Setting: 8-mer, flanks averaged, mean of 2 arrays, mostly near background
# Relative to: not given
# Reading: higher = stronger binding
# Residues (chain): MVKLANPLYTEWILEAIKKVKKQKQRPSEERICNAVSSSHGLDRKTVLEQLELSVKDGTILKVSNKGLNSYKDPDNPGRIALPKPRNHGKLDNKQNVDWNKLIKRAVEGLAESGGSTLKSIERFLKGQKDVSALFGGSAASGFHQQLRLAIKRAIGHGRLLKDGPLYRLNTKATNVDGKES
Sequence,E-score
GAATCAGC,-0.0493
CACACCTC,0.0108
AATATTGC,-0.00793
CGTCACCC,0.113
CGATCAGA,0.0294
GGGAACAA,0.016
GCTCCACC,-0.111
AATTCCAC,-0.197
CAGTTTGA,-0.0759
CCAGTGAC,-0.156
ACCCGATG,0.132
GTCAGCGA,0.00336
GGTTGGCA,-0.178
CATGGGCG,0.0484
GGCGGCAA,0.255
AACCGGCT,0.171

# Block 3
# Target: RING finger protein unkempt homolog, zinc fingers 1-6, GST-SBP tag (UNK, Homo sapiens, UniProt Q9C0B0, residues 30-357)
# UniProt Q9C0B0, sequence (30-357, looked up): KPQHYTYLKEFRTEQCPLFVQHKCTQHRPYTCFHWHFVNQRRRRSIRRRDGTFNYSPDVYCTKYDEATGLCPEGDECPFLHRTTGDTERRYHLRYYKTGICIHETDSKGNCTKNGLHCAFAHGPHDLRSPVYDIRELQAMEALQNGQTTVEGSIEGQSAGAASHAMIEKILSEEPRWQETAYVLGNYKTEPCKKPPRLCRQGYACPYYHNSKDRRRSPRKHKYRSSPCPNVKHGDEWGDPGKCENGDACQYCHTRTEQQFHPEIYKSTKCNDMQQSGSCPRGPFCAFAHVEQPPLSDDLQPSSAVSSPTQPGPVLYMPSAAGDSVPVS
# Method: RNA Bind-n-Seq
# Form: RNA
# Medium: in vitro
# Tested at: not given
# Setting: RNA with constant flanks, human-mouse chimeric sites, ends assumed
# Relative to: input RNA pool
# Reading: higher = stronger binding
# All sequences stand within: GGGAGUUCUACAGUCCGACGAUC … CAACAGAGGAUUGAGCAUCA
Sequence,bound/input enrichment [ratio]
UAAGUUAAGCUUUUAAUCUUUGUAAAUUCUUAACAUUUUUAUAUUGCCAUGUUUAUUUUGUUUGGGUAAUUUGGUUCAUUAAGUACAUAGCUAAGGUAAUGAACAUCUUUUUCAGUAAUU,0.643
AUGGAGAAGGAUUCUCUGCCCCGCUUUGUGCGCUCUGAAUUUUAUAAGGAGCUAAUCAAGUAGUAAUUUAGCCAGGCUUCCAAAAGUUGCCCUGUGAGUUGAGUUACAUCCUUUGUAGCA,0.907
CCUGCUCAGAUCACCAUGAAAGUAAUCCAAGGCCUAUAUAGUGGGGUCACCACAGUGGAACUAGAUACCCUGGCUGCUGAAACAGCUGCGACCUUGACCACGAAGCACCCUGACUAUGCC,0.198
CUGUGCGGGUGACUGUCCUGGAGUGGCUGGAGUUCCCGCCGGAGCGCGGCCAGACUAAUUAUAGAAAAUGCCAAGUAGGAAGUUUGUUGAGGGUGAAGUGGUCAGAGGCCGAUGGCCUGG,1.64
CCCCAAUACCAUUUGCAGGUCUGGAACUGCACUCUCUUUUUUAAAAAAUAUGCAUAUAUUUUAGGGCUGUAGACUUAUUUUCCUGGUUUUGUUUUUCAUUGCUGACUUUUGAGCACAGAA,1.12
UUCAAAGGCUGUGUUAUUUCAUAAAUAUCAUAAGUAACUCUGGGGGAGGGAAAUUCUGUUCUUUUGUUUAAUUUUCCCCCAAAUGAAGCCAAAGUGUGUGUUGAAGAACUGAGAAAAAAU,0.216
GAGCGUCUUGCCCGCACUGGGAUCAUCGUGACCACUAGUGAGGCUGUCCUCCUACAGCUGGUAGCUGAUAAGGACCACCCGAAGUUCAAGGAAAUUCAGAACCUAAUUAAGGCGAGUGCC,0.117
CUUUUUAAGAAGAUAUGUGAUGGGAUCUUCUAUACCCCUCAGUACUUAAACCCUUCAGUGAUUAGCCUUUUGAAACAUAUGCUGCAGGUGGAUCCCAUGAAGAGGGCCGCAAUAAAAGAU,0.483
ACCAUUUUCGCGGUUCAGGCUUUGUGUGUAGUUCACUUACGGUAUUAAAUUAUUAUUCUGCUUAGCUUAUAAUAAGGAUAAUUGCAUGAUUUAAGUAGAUCACUGAAUACUCUGAAACUU,0.616
CUCAUGGCUGCAGAAACAGGAAGUGGCAAAACUGGUGCAUUUAGUAUUCCCGUUAUCCAGAUAGUGUAUGAAACUCUGAAAGACCAACAGGAAGGAAAGAAAGGGAAAACAACUAUUAAA,0.911
CUUUUUAAGAAGAUAUGUGAUGGGAUCUUUUAUACCCCUCAGUACUUAAACCCUUCAGUGAUUAGCCUUUUGAAACAUAUGCUGCAGGUGGAUCCCAUGAAGAGGGCCACAAUCAAAGAU,0.416

# Block 4
# Target: CCND2, cyclin fold, Cln2 fusion (human)
# Method: yeast growth competition, sequencing
# Medium: yeast
# Setting: weak parent motif
# Relative to: not given
# Reading: higher = stronger binding
# Parent: SCAPER docking peptide (human); SNARRSLNFGGST
Variant,normalised enrichment score
SNAFRSLNFGGST [R4F],-0.138
SNARRSLYFGGST [N8Y],0.125
SNARRSLNFGGET [S12E],0.78
SNARKSLNFGGST [R5K],-0.095
SSARRSLNFGGST [N2S],0.382
SNARCSLNFGGST [R5C],0.0776
SNARRQLNFGGST [S6Q],0.809
SNCRRSLNFGGST [A3C],0.355
SNARRSLNQGGST [F9Q],-0.0315
VNARRSLNFGGST [S1V],0.508
SNARRSLMFGGST [N8M],0.558
ANARRSLNFGGST [S1A],0.443
SNARRHLNFGGST [S6H],1.02
SNARRSRNFGGST [L7R],-0.146
SNARRSLNVGGST [F9V],0.0438
SNAIRSLNFGGST [R4I],0.997
SNARRSLNFGGKT [S12K],0.473
SNARRSLNFGGVT [S12V],0.274

# Block 5
# Target: ATP-dependent RNA helicase DDX3X, helicase core (DDX3X, Homo sapiens, UniProt O00571, residues 132-607)
# UniProt O00571, sequence (132-607, looked up): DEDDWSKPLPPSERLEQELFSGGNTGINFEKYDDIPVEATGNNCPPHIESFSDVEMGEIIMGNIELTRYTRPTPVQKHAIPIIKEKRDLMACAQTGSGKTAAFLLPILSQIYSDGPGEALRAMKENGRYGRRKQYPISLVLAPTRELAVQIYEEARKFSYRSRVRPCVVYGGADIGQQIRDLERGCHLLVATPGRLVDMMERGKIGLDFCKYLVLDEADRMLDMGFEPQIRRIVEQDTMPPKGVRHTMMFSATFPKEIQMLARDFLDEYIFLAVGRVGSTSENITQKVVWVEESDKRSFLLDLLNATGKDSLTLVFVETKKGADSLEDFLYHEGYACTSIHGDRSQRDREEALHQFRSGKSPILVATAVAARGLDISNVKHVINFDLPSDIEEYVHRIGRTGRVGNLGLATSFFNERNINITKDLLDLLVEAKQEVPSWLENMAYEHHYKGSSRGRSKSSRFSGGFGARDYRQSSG
# Method: RNA Bind-n-Seq
# Form: RNA
# Medium: in vitro
# Tested at: 90 pmol
# Setting: 4-mer, random 30-nt RNA, single round
# Together with: 3 µM DMDA-PatA, 2 mM ADP, 2 mM phosphate
# Relative to: input library
# Reading: higher = stronger binding
Sequence,4-mer enrichment
GCGU,1.32 fold
CGUC,1.02 fold
GGCC,0.883 fold
CUUG,0.765 fold
UUGG,1 fold
CUAU,0.819 fold
CACG,0.984 fold
UGUA,1.05 fold
GUCA,0.955 fold
GACU,0.775 fold
UGUG,1.18 fold
GCUU,0.772 fold
AAAC,0.951 fold
CAUC,0.93 fold
UGAA,1.05 fold
CAUG,0.942 fold

# Excerpt of the above (block 4):
Variant,normalised enrichment score
SNARRSLNVGGST [F9V],0.0438
SNARRSLNFGGET [S12E],0.78
ANARRSLNFGGST [S1A],0.443
SNARRSRNFGGST [L7R],-0.146
SNARRSLNQGGST [F9Q],-0.0315
